Values quoted from earlier work, collected from citations in different studies.
Compare with care: the assays were run in different laboratories. Several values in a cell are separate wells, animals, samples, runs or records. ± marks the error that the study gave.
Equilibrative nucleoside transporter 2: Equilibrative nucleoside transporter 2 (Homo sapiens, UniProt Q14542)
ADORA1: Adenosine receptor A1 (ADORA1, Homo sapiens, UniProt P30542)

Structure (SMILES)	target or system	assay	system	setting	quantity	result
Nc1ncnc2c1ncn2[C@@H]1O[C@H](CO)[C@@H](O)[C@H]1O	Equilibrative nucleoside transporter 2		ENT1 knockout		Ki	2.6 ± 0.9 µM
NC(=O)C1=CN([C@@H]2O[C@H](COP(=O)(O)OP(=O)(O)OC[C@H]3O[C@@H](n4cnc5c(N)ncnc54)[C@H](O)[C@@H]3O)[C@@H](O)[C@H]2O)C=CC1	Alcohol dehydrogenase E chain (Equus caballus, UniProt P00327)	enzyme activity, product inhibitor		pH 8.0, 25 °C	Ki	0.5 µM
Cc1ccc(Sc2cccc3[nH]c4nc(N)nc(N)c4c23)cc1	KDR (Homo sapiens, UniProt P35968)	kinase activity, inhibitor			IC50	56.3 ± 7.1 µM
OCC1CC(n2cnc3c(SCc4ccccc4Cl)ncnc32)C(O)C1O (stereo not drawn)	adenosine kinase (Toxoplasma gondii)			apparent Ki equals apparent Km	Ki	24 ± 5.4 µM
CCOc1cccc(NC(=O)c2ccc(N3CCCC3)c(C(F)(F)F)c2)c1	TAAR1 (Homo sapiens, UniProt Q96RJ0)	binding			Ki	> 5 µM
OCC1CC(n2cnc3c(SCc4ccc(OC(F)(F)F)cc4)ncnc32)C(O)C1O (stereo not drawn)	adenosine kinase (Toxoplasma gondii)			apparent Ki equals apparent Km	Ki	66 ± 7.2 µM
CNC(=O)[C@@]12C[C@@H]1[C@@H](n1cnc3c(NCc4cccc(Cl)c4)nc(Cl)nc31)[C@H](O)[C@@H]2O	ADORA1		CHO	added: [3H]NECA	Ki	0.26 ± 0.06 µM
C[C@H](CCC(=O)O)[C@H]1CC[C@H]2[C@@H]3CC[C@@H]4C[C@H](O)CC[C@]4(C)[C@H]3CC[C@]12C	SLC10A2 (Homo sapiens, UniProt Q12908)	bile acid transport, inhibitor			Ki	2.1 µM
CCC1=C(C)c2cc3[nH]c(cc4[nH]c(cc5nc(cc1n2)C(C)=C5CC)c(C)c4CCC(=O)O)c(CCC(=O)O)c3C	TSPO				Ki	0.578 µM
C[C@@H]1CCO[C@H]2Cn3cc(C(=O)NCc4ccc(F)cc4F)c(=O)c(O)c3C(=O)N12	SLC22A2 (Homo sapiens, UniProt O15244)	inhibitor		geometric mean of reported	Ki	2.12 µM
Nc1nc(N)c2c(n1)[nH]c1cccc(Sc3ccccc3)c12	TYMS (Homo sapiens, UniProt P04818)	inhibitor			IC50	0.54 µM
O=C(O)[C@H]1NCCN(Cc2ccc3c(ccc4ccccc43)c2)[C@H]1C(=O)O	Glutamate receptor ionotropic, NMDA 2A, with GluN1a subunit (Grin2a, Rattus norvegicus, UniProt Q00959)	ion current, antagonist	Xenopus oocytes expressing GluN1/GluN2A, rat		Ki	11.2 ± 1.3 µM
CC1CN(c2ccc3ccccc3n2)CCN1CCCCN1C(=O)c2ccccc2C1=O (stereo not drawn)	SERT (human)	binding	human tissue	added: [3H]5-HT	Ki	0.008 ± 0.00407 µM
[I-].[K+]	SLC4A1 (Homo sapiens, UniProt P02730)	Cl- exchange, inhibitor		pH 8, citrate replacing chloride	Kd	950 to 1190 µM
OCC1CC(n2cnc3c(SCc4ccccc4F)ncnc32)C(O)C1O (stereo not drawn)	adenosine kinase (Toxoplasma gondii)			apparent Ki equals apparent Km	Ki	55 ± 10 µM
O=C(Nc1ncnc2c1ncn2[C@@H]1O[C@@H]2COP(=O)(O)OC2C1O)c1ccccc1 (stereo in doubt)	PDE4D	cyclic nucleotide hydrolysis, substrate or inhibitor, isothermal titration calorimetry			Km or Ki	49 µM
CC[C@H](C)[C@H](NC(=O)[C@@H](NC(=O)[C@H](CO)NC(=O)[C@@H](NC(=O)[C@@H]1CCCN1C(=O)[C@H](Cc1c[nH]c2ccccc12)NC(=O)[C@H](CCCNC(=N)N)NC(=O)[C@H](CO)NC(=O)[C@H](CC(N)=O)NC(=O)[C@H](C)N)[C@@H](C)O)[C@@H](C)CC)C(=O)O	Na(+)/H(+) exchange regulatory cofactor NHE-RF2, PDZ domain 1 (Homo sapiens, UniProt Q15599)	binding, fluorescence polarization displacement		PDZ domain 1, added: fluorescent CFTR peptide	Ki	> 1000 µM
O=c1ccn([C@@H]2O[C@H](CO)[C@@H](O)[C@H]2O)c(=O)[nH]1	Equilibrative nucleoside transporter 2		ENT1 knockout		Ki	180 ± 30 µM
O=C(O)c1cc2c(C(F)(F)F)cc(-c3ccccc3)cc2n1O	lactate dehydrogenase A	inhibitor, Lineweaver-Burk plot			Ki	8.9 µM
CNC(=O)[C@@]12C[C@@H]1[C@@H](n1cnc3c(NCc4cccc(I)c4)nc(Cl)nc31)[C@H](O)[C@@H]2O	ADORA2A (Homo sapiens, UniProt P29274)	binding			Ki	0.784 ± 0.097 µM

Structure (SMILES)	target or system	assay	system	setting	quantity	result
CC(C(=O)NCc1ccc(C(C)(C)C)cc1)c1ccc(NS(C)(=O)=O)c(F)c1 (stereo not drawn)	Trpv1 (Rattus norvegicus, UniProt O35433)	binding	CHO expressing rat TRPV1	added: [3H]resiniferatoxin	Ki	0.0462 µM
O=C(O)[C@@H]1NCCN(C(=O)c2ccc3c(ccc4ccccc43)c2)[C@H]1C(=O)O	Glutamate receptor ionotropic, NMDA 2B, with GluN1a (Grin2b, Rattus norvegicus, UniProt Q00960)	ion current, antagonist	Xenopus oocytes expressing GluN1/GluN2B, rat		Ki	9.1 ± 1 µM
OCC1CC(n2cnc3c(SCc4ccc(Cl)cc4)ncnc32)C(O)C1O (stereo not drawn)	adenosine kinase (Toxoplasma gondii)			apparent Ki equals apparent Km	Ki	16 ± 2.2 µM
COc1ccccc1CN(C(C)=O)c1cnccc1Oc1ccccc1	Translocator protein, open form (TSPO, Homo sapiens, UniProt P30536)		human brain tissue	high-affinity binders	Ki	~0.004 µM and 0.0034 µM
O=C(NCCCCN1CCN(c2ccccc2OCCF)CC1)c1ccc(-c2ccsc2)cc1	sigma 1 receptor				Ki	> 5 µM
C[C@H]1O[C@@H](O[C@H]2[C@@H](O)C[C@H](O[C@H]3[C@@H](O)C[C@H](O[C@H]4CC[C@@]5(C)[C@H](CC[C@@H]6[C@@H]5C[C@@H](O)[C@]5(C)[C@@H](C7=CC(=O)OC7)CC[C@]65O)C4)O[C@@H]3C)O[C@@H]2C)C[C@H](O)[C@@H]1O	Na+/K+-ATPase human recombinant	enzyme activity, inhibitor			Ki	0.25 µM
Cc1ccc(CSc2ncnc3c2ncn3C2CC(CO)C(O)C2O)c(C)c1C (stereo not drawn)	adenosine kinase (Toxoplasma gondii)			apparent Ki equals apparent Km	Ki	63 ± 6.9 µM
Nc1nc2c(nc(Br)n2[C@@H]2O[C@@H]3COP(=O)(O)O[C@H]3[C@H]2O)c(=O)[nH]1	PDE4D	cyclic nucleotide hydrolysis, substrate or inhibitor, isothermal titration calorimetry			Km or Ki	30.1 µM
O=C1c2cccc3c2[C@H](CCC3)CN1[C@@H]1CN2CCC1CC2			healthy volunteers, plasma	oral, dose not given, netupitant-palonosetron alone, rifampicin study	CL/F	15.5 L/h
CCn1nnc([C@H]2O[C@@H](n3cnc4c(NCc5cccc(I)c5)nc(Cl)nc43)[C@H](O)[C@@H]2O)n1	ADORA1	adenylyl cyclase inhibition, agonist			EC50	0.0649 µM
NCCCNC(=O)[C@H]1O[C@@H](n2cnc3c(N)ncnc32)[C@H](O)[C@@H]1O	adenosine A2A receptor	binding			Ki	> 10 µM
O=C(O)c1cc([C@H]2CCN[C@@H]2C(=O)O)ccc1Br	Grik2 (Rattus norvegicus, UniProt P42260)	binding, [3H]kainate displacement		cloned homomeric receptor	Ki	> 100 µM
CC(Oc1ccc(O)cc1)(P(=O)(O)O)P(=O)(O)O	inositol monophosphatase, bovine frontal cortex	inhibitor			Ki	0.42 µM
CNC(=O)[C@@]12C[C@@H]1[C@@H](n1cnc3c(NCc4cccc(I)c4)nc(Cl)nc31)[C@H](O)[C@@H]2O	ADORA1	radioligand binding	CHO cells expressing human A1 receptor		Ki	0.136 ± 0.022 µM
Nc1ncnc2c(CN3C[C@H](CSc4ccc(Cl)cc4)[C@@H](O)C3)c[nH]c12	Aminodeoxyfutalosine nucleosidase (Helicobacter pylori, UniProt Q9ZMY2)	inhibitor			Ki	0.00057 µM
O=c1[nH]c(=O)c2[nH]c(=O)c(=O)n(C[C@H](O)[C@H](O)[C@H](O)CO)c2[nH]1	Bacillus subtilis lumazine synthase	inhibitor	recombinant β60 capsid	pH 7.0, Tris·HCl buffer, added: 2 constant, 1 varied	Ki	7.8 ± 0.5 µM
Nc1ncnc2c1ncn2[C@@H]1O[C@H](COP(=O)(O)OP(=O)(O)O)[C@@H](O)[C@H]1O	GLUD1 (Homo sapiens, UniProt P00367, S501P)	enzyme activity, activator		mutant enzyme, reductive amination	EC50	21 µM
OCC1CC(n2cnc3c(SCc4ccccc4)ncnc32)C(O)C1O (stereo not drawn)	adenosine kinase (Toxoplasma gondii)			apparent Ki equals apparent Km	Ki	105 ± 12 µM
C=CC[C@@H]1/C=C(\C)C[C@H](C)C[C@H](OC)[C@H]2O[C@@](O)(C(=O)C(=O)N3CCCC[C@H]3C(=O)O[C@H](/C(C)=C/[C@@H]3CC[C@@H](O)[C@H](OC)C3)[C@H](C)[C@@H](O)CC1=O)[C@H](C)C[C@@H]2OC	FKBP	rotamase activity, inhibitor			Ki	0.001 to 0.002 µM

Some of these lines once more:
Structure (SMILES)	target or system	assay	system	setting	quantity	result
C[C@H](CCC(=O)O)[C@H]1CC[C@H]2[C@@H]3CC[C@@H]4C[C@H](O)CC[C@]4(C)[C@H]3CC[C@]12C	SLC10A2 (Homo sapiens, UniProt Q12908)	bile acid transport, inhibitor			Ki	2.1 µM
CCC1=C(C)c2cc3[nH]c(cc4[nH]c(cc5nc(cc1n2)C(C)=C5CC)c(C)c4CCC(=O)O)c(CCC(=O)O)c3C	TSPO				Ki	0.578 µM
C[C@@H]1CCO[C@H]2Cn3cc(C(=O)NCc4ccc(F)cc4F)c(=O)c(O)c3C(=O)N12	SLC22A2 (Homo sapiens, UniProt O15244)	inhibitor		geometric mean of reported	Ki	2.12 µM
Nc1nc(N)c2c(n1)[nH]c1cccc(Sc3ccccc3)c12	TYMS (Homo sapiens, UniProt P04818)	inhibitor			IC50	0.54 µM
O=C(O)[C@H]1NCCN(Cc2ccc3c(ccc4ccccc43)c2)[C@H]1C(=O)O	Glutamate receptor ionotropic, NMDA 2A, with GluN1a subunit (Grin2a, Rattus norvegicus, UniProt Q00959)	ion current, antagonist	Xenopus oocytes expressing GluN1/GluN2A, rat		Ki	11.2 ± 1.3 µM
